Experimental data pooled from the literature.
Each line is one published result; not all experiments were run side by side. ± marks the error that the study gave.

Compound | tested on | assay | system | setting | how to read | quantity | value
Cc1ccc2c(c1C#Cc1ccc(O)cc1)C(c1ccc(O)cc1)(c1ccc(O)cc1)c1cc(O)ccc1-2 | MGC-803 | cell growth or viability, MTT | – | 48 h | – | IC50 | 10000 nM
O=C(CN1CCN(C(=O)c2ccc(F)cc2)CC1)Nc1cccc(C(=O)Nc2ccc3[nH]ncc3c2)c1 | KM12 | cell growth or viability, ATP luminescence | – | 72 h | – | IC50 | 33600 nM
C[C@H](c1ccccc1)N1C(=O)C2=Nc3ccc(Br)cc3CN2C1=S | healthy human PBMCs | cell viability, resazurin | – | – | – | IC50 | 2200 ± 200 nM
Cc1cc(C(=O)Nc2ccc3[nH]ncc3c2)ccc1NC(=O)Nc1cc(C(F)(F)F)ccc1F | KM12 | cell growth or viability, ATP luminescence | – | 72 h | – | IC50 | > 50000 nM
Cn1ncc(-c2ccc3c(=O)[nH]nc(CN)c3c2)c1-c1c(F)c(Cl)cc(OC2CC2)c1C#N | NALM-6 | cell viability, inhibitor, CellTiter-Glo | – | 120 h, baseline-subtracted | – | IC50 | 100 nM
COC1CN([C@H]2CC[C@H]([C@@]3(C)Oc4c(Cl)cc(C(=O)NCc5c(SC)cc(C)[nH]c5=O)c(C)c4O3)CC2)C1 | – | RNA-seq, refers to: TREM2 | human, whole blood | dose not given, 24 h | reference: pretreatment baseline | log2 fold change | 1.75
O=[N+]([O-])c1ccc(C=NNC(=S)Nc2ccccc2)o1 | CAKI-1 | cell growth or viability, resazurin | – | – | – | IC50 | > 100000 nM
C=CC(=O)N1CCCC(n2c(=O)c3ncccc3n(Cc3ccc(Oc4ccccc4)cc3)c2=O)C1 (stereo not shown) | JVM-2 | cell growth or viability, MTT | – | 72 h | – | IC50 | 2500 nM
CC(C)c1ccc(N(C)c2ccc3c(c2)OCC[C@H]3CNc2cnccc2C(=O)O)cc1 | NCI-H446 | cell viability, CellTiter-Glo | – | 7 days | – | IC50 | 119 nM
C=CC(=O)N1CC2C(=O)N(CCN(C)C)c3c(c4cc(Cl)c(-c5c(O)cccc5F)nc4n(-c4c(C)ccnc4C(C)C)c3=O)N2CC1C (stereo not shown) | SW1573 | cell growth or viability | – | – | – | IC50 | > 10000 nM
CCC(=CCc1c(O)cc2c(c1O)C(=O)CC(c1cccc(OC)c1O)O2)CC (stereo not shown) | normal pig cell line | cytotoxicity, MTT | – | 48 h | – | IC50 | 10900 ± 2400 nM
C[C@H](c1ccccc1)N1C(=O)C2=Nc3ccccc3CN2C1=S | healthy human PBMCs | cell viability, resazurin | – | – | – | IC50 | 5900 ± 800 nM
CCOc1cncc(-c2ccc(NC(=O)C3(c4ccnc(NS(=O)(=O)C5CC5)n4)CCOCC3)nc2)n1 | RPMI-2650 | cell proliferation, CellTiter-Glo | – | 72 h | – | IC50 | 1440 nM
C[C@@H](c1ccc2ccccc2c1)N1C(=O)C2=Nc3ccccc3CN2C1=S | healthy human PBMCs | cell viability, resazurin | – | – | – | IC50 | 2100 ± 1500 nM
Cc1cc2cc(C(=O)N(Cc3ccc(C(F)(F)F)cn3)[C@H](C)c3ncccn3)ccc2nc1N | HCT-116 MTAP-deleted | global SDMA level, refers to: SDMA | – | 72 h | – | IC50 | 0.2 nM
C[C@H](c1cccc2ccccc12)N1C(=O)C2=Nc3ccccc3CN2C1=S | healthy human PBMCs | cell viability, resazurin | – | – | – | IC50 | 3100 ± 10 nM
CC(=O)[O][Pt]([NH2])([NH2])([Cl])([Cl])[O]C(=O)CCCc1ccccc1 | C13* cisplatin-resistant ovarian | cytotoxicity, MTT | – | 72 h | – | IC50 | 1020 ± 700 nM
C[C@H](c1ccccc1)N1C(=O)C2=Nc3cc(Cl)ccc3CN2C1=S | healthy human PBMCs | cell viability, resazurin | – | – | – | IC50 | 2300 ± 700 nM
O=C(Nc1ccc(F)c(C(=O)Nc2ccc3[nH]nc(-c4ccccc4)c3c2)c1)Nc1cc(C(F)(F)F)ccc1F | KM12 | cell growth or viability, ATP luminescence | – | 72 h | – | IC50 | > 50000 nM

Compound | tested on | assay | system | setting | how to read | quantity | value
CCC(=CCc1c(O)cc2c(c1O)C(=O)CC(c1cccc(O)c1)O2)CC (stereo not shown) | normal pig cell line | cytotoxicity, MTT | – | 48 h | – | IC50 | > 120000 nM
Cc1ncsc1-c1ccc(C(C)NC(=O)C2CC(O)CN2C(=O)C(NC(=O)CCCCCCCCCCN2CCCC(Nc3ncc(Cl)c(Nc4ccccc4S(=O)(=O)C(C)C)n3)C2)C(C)(C)C)cc1 (stereo not shown) | 22Rv1 | RNA-seq, refers to: SLC20A2 mRNA | – | concentration not given | reference: DMSO | log2 fold change | -1.04
CCC(=CCc1c(O)cc2c(c1O)C(=O)CC(c1cc(O)cc(OC)c1)O2)CC (stereo not shown) | normal pig cell line | cytotoxicity, MTT | – | 48 h | – | IC50 | 18100 ± 2700 nM
CC(C)OC(=O)[C@H](CO)NCc1cc(Cl)c(OCc2cccc(-c3ccccc3)c2Br)cc1OCc1cccnc1 | HCT-8 | cell growth or viability, MTT | – | – | – | IC50 | > 10000 nM
C=CC(=O)Nc1cccc(Cn2ncc3cnc(Nc4cnn(CCOC)c4)nc32)c1 | ACVR2A human | binding, KINOMEscan | – | 100 nM | lower = stronger binding | percent of control | 98%
NC(=O)c1ccc(-c2ccccc2Cl)c2c3c([nH]c12)CC[C@H](N)C3 | NCI-H446 | cell proliferation | – | 96 h | – | IC50 | 78.2 nM
Cc1cnc2nc1Nc1cc(F)cc(c1)COC/C=C/COCc1cc(ccc1OCCN1CCCC1)N2 | SET-2 | cell growth or viability, CCK-8 | – | – | – | IC50 | 8060 nM
CCn1nc(Cl)c2c1-c1cnc(N)c(c1)O[C@H](C)c1cc(F)ccc1-c1nn(C)cc1C2 | Aska-SS (ALK exon 2-17 deletion) | cell viability | – | – | – | IC50 | 6.96 nM
CCC(=CCc1c(O)cc2c(c1O)C(=O)CC(c1ccc(O)cc1OC)O2)CC (stereo not shown) | normal pig cell line | cytotoxicity, MTT | – | 48 h | – | IC50 | 11000 ± 2400 nM
O=C(Nc1ccc(C(=O)Nc2ccc3[nH]ncc3c2)c(Cl)c1)Nc1cc(C(F)(F)F)ccc1F | KM12 | cell growth or viability, ATP luminescence | – | 72 h | – | IC50 | > 50000 nM
CNS(=O)(=O)Nc1nccc(Cc2c(C)c3ccc(Oc4ncccc4F)cc3oc2=O)c1F | AU565 | cell viability | – | 7 days | – | IC50 | > 1000 nM
COc1ccc(NC(=O)c2ccc3[nH]c(-c4ccc(N(C)C)cc4)nc3c2)cn1 | Y79 | cell growth, CellTiter-Glo | – | – | – | IC50 | 9240 nM
Nc1ncc(-c2cc(-c3cnn(CC(F)(F)F)c3)ncc2F)nc1C(=O)NC1CNCC(F)C1 (stereo not shown) | MDA-MB-436 | cell growth or viability, ATP luminescence | – | 72 h | – | IC50 | 1870 nM
Cc1cc(Cl)cc(-c2ccnc3cc(CN4C(=O)C5C(C4=O)C5(C)C)sc23)c1C[C@@H]1CNCCO1 (stereo partly shown) | CHP-212 | cell viability, SRB | – | mean of replicates | – | IC50 | 488 nM
O=Cc1ccc2c(c1C#Cc1ccc(O)cc1)C(c1ccc(O)cc1)(c1ccc(O)cc1)c1cc(O)ccc1-2 | MGC-803 | cell growth or viability, MTT | – | 48 h | – | IC50 | > 50000 nM
Cc1ccc([N+](=O)[O-])cc1S(=O)(=O)N(C)/N=C/c1cnc2ccc(Br)cn12 | TK-10 | MTS | – | NCI60 panel | – | IC50 | 805 nM
COC(=O)N1c2ccc3c(nc(Cc4ccccc4)n3[C@@H]3CCC[C@@H](C(=O)O)C3)c2CC[C@@H]1C | AU565 | cell growth or viability, ATP luminescence | – | 10 days | – | IC50 | 610 nM
C=CC(=O)N1CCC[C@@H](c2ccc(C(N)=O)c3[nH]ccc23)C1 | TMD8, parental | cell viability, CellTiter-Glo | – | 4 days | – | IC50 | 199 nM

Excerpt of the above:
Compound | tested on | assay | system | setting | how to read | quantity | value
COC(=O)N1c2ccc3c(nc(Cc4ccccc4)n3[C@@H]3CCC[C@@H](C(=O)O)C3)c2CC[C@@H]1C | AU565 | cell growth or viability, ATP luminescence | – | 10 days | – | IC50 | 610 nM
C=CC(=O)N1CCC[C@@H](c2ccc(C(N)=O)c3[nH]ccc23)C1 | TMD8, parental | cell viability, CellTiter-Glo | – | 4 days | – | IC50 | 199 nM
